Results pooled from the literature.
A part holds a random share of what one study measured.

Set 1
Target: RNA binding protein fox-1 homolog 2, RRM domain, GST-SBP tag (RBFOX2, Homo sapiens, UniProt O43251-10, residues 100-194)
Technique: RNA Bind-n-Seq
Form: RNA
Medium: in vitro
Concentration: 365 nM
Notes: natural RNA segment, single round, ends assumed
Reference: no-protein control
Direction: higher = stronger binding
Constant ends, left off below: GGGAGUUCUACAGUCCGACGAUC … UGGAAUUCUCGGGUGCCAA
Target sequence (chain): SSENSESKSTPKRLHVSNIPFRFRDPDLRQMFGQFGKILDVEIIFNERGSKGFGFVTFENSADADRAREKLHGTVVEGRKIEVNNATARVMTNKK
Sequence	RBNS enrichment (R)
UUUCCUGCAUCUCUCAGACAGGACUCACCAUCUCUGCCUCCCAUGAGGCUUACAGAGUUCAAUGUUGGAAAUCAUUGUAAUCUUCAAAAUAAGUCACCGUGUUGGAUUGA	0.28
UGAUGCCAAAGAGCUCAACGGGGCCUCUCAUGGUGAGCGUGGAUAGAUACGUGAUGUCUGGUCAUGUAGUGAGGGCCUUGGGGGCUUGCCUUUGAAUGCUAUAGCAUAUU	1.72
UGUGGAGUUGUUCUUAUCACCUUGCUUCAGAUGUUACUUUGGCGUCCUCCACCAGUUCUCCAUGCGCACCUCUGCAUGUCCGGCACUAGAAUCCCUGAACACUACUUCAC	1.9
AGCUUGCAGAAGCUGCCAGCUGUGCUCACACCACCACCUGGGACAACCACUCGUUGGUCAAGUUCAGACACCAUCCAUGGAGGUUGCAGGAAAGCUGGGGAAGGUUAUGA	0.384
AGAACAAUGGCGUUCUGUAAUUUCCUUCAUUCUGCUUCAUAGUUGCUGACAUCUCAGAGACGCCAUCCUCCUAAUUUUCCUGUCCUUCCAAUAGAACAACAGGAGUAGAG	0.377
UAUGAGAUUACCUUAUUUUUAUAUAUGACAAACUACUUCUAUAAUGCUUAUUAUGGUAAAAUAAAAUUGGAAAAAAUUAAAACUGACCUAUAAGAGUGUUAAGGACCUAA	0.341
GCCUCAAGACUCUUUUGCCUCAGUCAAGACUGUUAUAUGUAGCUGUUGUCUUUCCUGUCCCAACCUACACGGGUCUCUGUAACAUUCCACUAUUCAAACUUCCAAGGAGU	0.229
AUUAAAAGGGGACUAAAAAUUUGUUUUGUAUAAAGAGGAUAGCCCUGCGCACGUAGGACUGAAUUCAGUGAUAUCCCUAUACACUGCCAAUUAGUGGAUAGGUUAUUGUA	0.594
CCCACUCCUUUCAUAUACGUUUGUGAAGCACCUGCCUUGAGUUCUAAUAAAAUUGCCCGUUUUGCAUUUGUACCCAGAGUAAUAUGUGCCAGAUACUUCAAUCUCAGAAU	1.67
UCUACCUUUCAUAUAAUGCUACAUUGAAGGCACAGAAUUUGCUACCAUCUCUCUCUCCCCCUACCUACCAAACUAUCCACAAUUUAAAUAAAGAACUGCUGUGUCUGACU	2.53
UGUUUUCUCUUCCCUUAGGUUGGGGCGGACCUUUGGAUAUAUAAAGGAAGCAGUUUUAGUAUCAGAAAAGAUUUAUUAGAAAAUUCUCACGCUGAACUGGUGUAGCAUGU	4.31
UCCCUGAGAGGACUUAAAAGCAGAAGGAAACCGAGAUGCUUCCCGCAGCCGUGGACGAUUCUCCAGGACUCUUUUUUUACCUUGAGCACUUGCCUCGUGAGACUUCAUAG	0.429

Set 2
Target: Histone acetyltransferase KAT6A, both winged helices, GST fusion (KAT6A, Homo sapiens, UniProt Q92794, residues 1-181)
Technique: protein binding microarray
Form: double-stranded DNA, one strand shown
Medium: in vitro
Concentration: not given
Notes: 8-mer, flanks averaged, mean of 2 arrays, mostly near background
Reference: not given
Direction: higher = stronger binding
Residues (chain): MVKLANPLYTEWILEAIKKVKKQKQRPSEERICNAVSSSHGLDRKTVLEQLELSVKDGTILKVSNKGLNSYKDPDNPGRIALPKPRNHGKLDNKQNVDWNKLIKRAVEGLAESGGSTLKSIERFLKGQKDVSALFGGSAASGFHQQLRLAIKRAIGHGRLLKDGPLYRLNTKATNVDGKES
Sequence	E-score
CCCCGGGA	0.205
AGGTTTTC	-0.0622
ACCTCTTG	-0.131
CGTGAAAC	0.16
AAAGTAAT	0.0215
CTATGCGA	0.106
ATCACTGG	-0.11
CCAGGACA	-0.0809
CCGAGCTC	0.0814
CCGATCCA	0.0472
CCACGGAA	0.298
ATTATACG	0.0599
ACACTATC	-0.0113
GATCGGTA	0.0886
GAGCCTGA	0.112
CATAGGGC	-0.0134
CCGTAGAA	0.11
GGCCGCAC	0.167
ACGCTGCC	0.074

Set 3
Target: Centromere-binding protein 1, full length, N-terminal tag (CBF1, Saccharomyces cerevisiae, UniProt P17106, residues 1-351)
Sequence of UniProt P17106 (whole entry, looked up): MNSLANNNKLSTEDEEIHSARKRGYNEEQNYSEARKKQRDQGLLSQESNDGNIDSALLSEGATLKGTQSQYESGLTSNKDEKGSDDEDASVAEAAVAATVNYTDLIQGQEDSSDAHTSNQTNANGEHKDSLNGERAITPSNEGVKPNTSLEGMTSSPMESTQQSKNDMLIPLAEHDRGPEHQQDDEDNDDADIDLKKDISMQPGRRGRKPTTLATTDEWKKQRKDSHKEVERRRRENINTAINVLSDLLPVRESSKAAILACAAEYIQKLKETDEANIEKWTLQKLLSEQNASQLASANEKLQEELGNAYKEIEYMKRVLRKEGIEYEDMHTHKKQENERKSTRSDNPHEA
Technique: protein-binding microarray
Form: double-stranded DNA, one strand shown
Medium: in vitro
Concentration: 0.8 µM
Notes: whole 60-bp probe, no competitor
Direction: higher = stronger binding
Constant ends, left off below: … GTCTTGATTCGCTTGACGCTGCTG
Sequence	fluorescence intensity [a.u.]
CTATATAAGAATCACCACGTTTCAGGTCTCCAATTC	564
GAATTACTTATATATCACCTGCCGTCTCAGACGTAG	938
GAAGAAGAAAGAGGTACCATGTGATTCGAGATTTAG	2230
CTACCTCGCTCAGAACATCAGCGAGAGTTCCAGTTC	514
CTAGCGAGACAGAAGGACGTGCCCTTAGCTATTTTC	486
GAAACTTTGCATTATCACATCAGACGGAATTGTTAG	606
CTAAATAGTAAACGTCACCCCGAGGTTTAAAAATTC	511
GAATAACATCACTATTACATCAGGAATAGCTGTTAG	504
GAACACAATTCGGATCATCAGGTTCATGATGATTAG	558
GAACTAGTCTATGATCCGTCACCTATTTTTATTTAG	542
CTATCGATTAGTATTCATGTCACTAGTATATTATTC	574
GAACGTTGGTAAAACCACGAGTTTGGAATCAAATAG	570
TGTACGAAGCTATCTGTCACGTTTATAGTAGTTAGG	1500
GAAGAGAACGAATTCCAGGTGATTCCGATAAGATAG	594
CTAGGAGCATCCAGTCTCACCTGGGTTGGCTCTTTC	456
CTAAATAGGAAATATCACGCTACCTGACAAAAATTC	887
CTATAGTAAAGGAGAGACGTGACAGTTGGATGTTTC	593
GAATAGTAGCCCTGACACGTTTTGAAATTCTTTTAG	579
CTAAATGGTAATCAAAACGTGATCGCTTATATTTTC	2530
CTATTCGGATGATCTGCCGTGACAGGTGGTTCGTTC	690
GAATTCAAAGATGATCACATAAATTGCGCCCAATAG	510
CTACCATCCTTTCTGCACATGTTACGCTGTTTATTC	719
CTATGCACATGGACGCACGTTGTGTGTTCATATTTC	635
GAAATATGAGTTTCTAACGTGCAATGTTTGGTGTAG	529

Set 4
Target: Interferon regulatory factor 7, full length, phosphomimetic (IRF7, Homo sapiens, UniProt Q92985, residues 1-503, S471D/S472D/S475D/S476D/S477D/S483D/S484D/S487D)
Technique: protein-binding microarray
Form: double-stranded DNA, one strand shown
Medium: in vitro
Concentration: 2200 nM top
Notes: 60-bp whole probe
Together with: salmon DNA 0.4 mg/ml
Reference: random background probes
Direction: higher = stronger binding
Constant ends, left off below: GCCTAGCAC … GTCTTGATTCGCTTGACGCTGCTG
Residues (chain): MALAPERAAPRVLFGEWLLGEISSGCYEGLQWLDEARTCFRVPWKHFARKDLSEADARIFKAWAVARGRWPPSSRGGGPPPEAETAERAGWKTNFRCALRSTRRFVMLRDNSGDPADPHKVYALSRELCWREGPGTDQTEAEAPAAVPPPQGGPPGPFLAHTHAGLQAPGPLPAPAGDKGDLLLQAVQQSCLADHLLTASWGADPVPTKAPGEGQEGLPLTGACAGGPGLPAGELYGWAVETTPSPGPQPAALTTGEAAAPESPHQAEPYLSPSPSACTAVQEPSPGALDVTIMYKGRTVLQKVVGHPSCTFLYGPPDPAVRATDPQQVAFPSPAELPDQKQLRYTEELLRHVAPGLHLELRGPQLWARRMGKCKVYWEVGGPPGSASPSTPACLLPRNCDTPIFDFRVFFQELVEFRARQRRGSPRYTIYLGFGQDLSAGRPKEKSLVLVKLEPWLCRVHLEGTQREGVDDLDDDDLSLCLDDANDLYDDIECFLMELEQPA
Sequence	fitted relative affinity [z-score]
TCACTTTTCAGTCCCCTACTGTGCTAG	3.97
TTCGGTTTCGGTATCGGTTAGTGCTAG	9.76
TGAGTTTTCCTTCATGTGCCGTGCTAG	1.6
GACGGTTTCGGGTATCGGGAGGTGCTA	5.65
CACGGACTGGGGTTTCGGGACGTGCTA	0.0741
GACGGTATCGGGTATCCGGACGTGCTA	-0.0799
TCAGGTTCTCTTTTATTACTGTGCTAG	1.62
CATGCTCTTATATACCTGTATGTGCTA	1.2
GACGGATTCGGACTGGGGACGTGCTAG	0.253
GATTATAAAATGTGTGTTTGGTGCTAG	0.00816
GGTCAGTCAGGTCACTTCTGGTGCTAG	-0.528
GACGGTATCGGACTGCGGACGTGCTAG	-0.178
TTAGATTTCGACTTTCGGTTAGTGCTA	8.67
ACCACTCTTGCTTTTTAGATGTGCTAG	1.75
TTAGATTTCGGGACTGGAATAGTGCTA	0.881
TTAGATCTTAGACTGGATTAGTGCTAG	-0.372

Excerpt of the above (set 2):
Sequence	E-score
CTATGCGA	0.106
ATCACTGG	-0.11
CCAGGACA	-0.0809
CCGAGCTC	0.0814
CCGATCCA	0.0472
CCACGGAA	0.298
ATTATACG	0.0599
ACACTATC	-0.0113
GATCGGTA	0.0886
GAGCCTGA	0.112
CATAGGGC	-0.0134
